Experimental data gathered from unrelated publications.
“And” joins repeats or separate records; there may be more than shown. ± marks the error that the study gave.
HTR3A: 5-hydroxytryptamine receptor 3A (HTR3A, Homo sapiens, UniProt P46098)
Trypanothione synthetase: Trypanothione synthetase (Leishmania infantum, UniProt A4I2Z3)
CGAS catalytic domain; with DNA: Cyclic GMP-AMP synthase, catalytic domain; with DNA (CGAS, Homo sapiens, UniProt Q8N884)

`Cc1ccc(OC[C@H]2CN(CCN3CCc4ccccc43)CCO2)cn1` has an inhibition of -15% (HTR3A; radioligand binding; concentration not given, together with: [3H]GR65630).
The inhibition of `CC[C@@H]1[C@H](F)C(=O)N[C@@H]1COc1nccc2cc(C(N)=O)c(OC)cc12` is reported as -4.8% (RAC-alpha serine/threonine-protein kinase (AKT1, Homo sapiens, UniProt P31749); ATP probe binding, KiNativ profiling, refers to: ATP loop probe site; THP-1 cell lysate; 0.01 mM).
`O=C1Cc2cc(-c3csc(NCCc4cccs4)n3)cc3c2N1CCC3` has an inhibition of 74.4 ± 18.1% (Trypanothione synthetase; enzyme activity; 25 µM).
For `C#Cc1cc(-c2cc(Nc3nc(N[C@@H](C)c4ccc(F)cn4)ncc3Cl)n[nH]2)ccc1C=O`, the inhibition was 102% (High affinity nerve growth factor receptor (NTRK1, Homo sapiens, UniProt P04629, A608D); enzyme activity, inhibitor; 0.2 µM).
The inhibition of `COc1ccc(F)cc1C(=O)NCc1ccc(-c2nn([C@@H](C)C(F)(F)F)c(N)c2C(N)=O)cc1` is reported as 7.3% (Phosphatidylinositol 4,5-bisphosphate 3-kinase catalytic subunit beta isoform (PIK3CB, Homo sapiens, UniProt P42338); target engagement, competitive chemoproteomics; human PBMCs; 0.01 µM).
With `O=C(CN1CCO[C@H](COc2ccccc2)C1)N1CCc2ccccc21` the inhibition was 9.9% (HTR3A; radioligand binding; concentration not given, together with: [3H]GR65630).
For `CNc1ccc(-c2nc3ccc(O)cc3s2)cc1`, the inhibition was 77.7% and 82.7% (Amyloid-beta precursor protein, amyloid-beta (APP, Homo sapiens, UniProt P05067); binding, competition binding; amyloid-beta aggregates; 100 nM, together with: tritiated amyloid ligand).
`CN(Cc1cccnc1)C(=O)c1ccc(C2CCCCC2)cc1` gave a hepatic clearance of 87 mL/min/kg (liver microsome stability; mouse liver microsomes; 1 µM).
The inhibition of `CN1CCN(c2cc(-c3ccncc3)c(-c3ccc4ccccc4c3)nn2)CC1` is reported as 1.9% (Melanocortin receptor 5 (MC5R, Homo sapiens, UniProt P33032); antagonist, FLIPR; 10 µM).
`Cc1nn(-c2nc3ccccc3s2)c(O)c1C(c1ccccc1C(=O)O)c1c(C)nn(-c2nc3ccccc3s2)c1O` has an inhibition of 96.8% (CGAS catalytic domain; with DNA; cGAS phase separation, inhibitor; 5 µM).
With `CCN1/C(=C/C(C)=O)Sc2ccc(F)cc21` the inhibition was 9.04% (Glucocorticoid receptor (NR3C1, Homo sapiens, UniProt P04150); 10 µM).
The inhibition of `Cc1cc2c(cc1N1C(=O)c3cccc4c(CCCO)ccc(c34)C1=O)n(C)c(=O)n2C` (racemic) is reported as 78% (Transcription intermediary factor 1-alpha, PHD-bromodomain (TRIM24, Homo sapiens, UniProt O15164); binding, BROMOscan; 1000 nM, PHD-bromodomain).
The inhibition of `C[C@@H]1CCO[C@H]2Cn3cc(C(=O)NCc4ccc(F)cc4F)c(=O)c(O)c3C(=O)N12` is reported as 3.96% (Solute carrier family 22 member 3 (SLC22A3, Homo sapiens, UniProt O75751); transport; MDCK-II, transfected; 5 µM, together with: MPP+ 2 µM).
`COc1cc(-c2cc(C(C)=O)n3ccccc23)c(OC)cc1Cn1ccnc1` gave an inhibition of -3.89% (Transcription intermediary factor 1-alpha (TRIM24, Homo sapiens, UniProt O15164); 1 µM).
With `Cc1nn(-c2nc3c(F)cc(F)cc3s2)c(O)c1C(c1ccccc1C(=O)O)c1c(C)nn(-c2nc3c(F)cc(F)cc3s2)c1O` the inhibition was 99.9% (CGAS catalytic domain; with DNA; cGAS phase separation, inhibitor; 2.5 µM).
For `O=C(CN1CCO[C@@H](COc2ccccn2)C1)N1CCc2ccccc21`, the inhibition was -7% (HTR3A; radioligand binding; concentration not given, together with: [3H]GR65630).
`CCN(CC)C(=S)S`: inhibition “no inhibition” (Receptor-type tyrosine-protein phosphatase C (PTPRC, Homo sapiens, UniProt P08575); Lck phosphorylation, inhibitor, immunoblot; 75 µM, 2 min).
`COc1cc(C(=O)NS(=O)(=O)c2ccccc2C)ccc1Cc1cn(C)c2ccc(NC(=O)OC3CCCC3)cc12` has an inhibition of 28.9% and 30.1% and 29.6% and 38.8% (Volume-regulated anion channel subunit LRRC8C, part LRRC8A IL1 chimera (LRRC8C, Homo sapiens, UniProt Q8TDW0, L136K); ion current, inhibitor, whole-cell patch clamp; HCT LRRC8-/- cells; 0.03 µM, +100 mV).
The inhibition of `Clc1cncc(OC[C@H]2CN(CCN3CCc4ccccc43)CCO2)c1` is reported as -9.7% (HTR3A; radioligand binding; concentration not given, together with: [3H]GR65630).
With `COCCC(=O)Nc1ccc(C2CCCCC2)cc1` the hepatic clearance was 50 mL/min/kg (liver microsome stability; rat liver microsomes; 1 µM).
For `Clc1cccc(OC[C@H]2CN(CCN3CCc4ccccc43)CCO2)c1`, the inhibition was -3.7% (HTR3A; radioligand binding; concentration not given, together with: [3H]GR65630).
With `C[C@H]1[C@H](OC(=O)CCC(=O)O)O[C@@H]2O[C@@]3(C)CC[C@H]4[C@H](C)CC[C@@H]1[C@@]24OO3` the inhibition was 29.8% (Non-structural polyprotein pORF1, RNA-dependent RNA polymerase (Hepatitis E virus genotype 1, UniProt P33424); polymerase activity, colorimetric; 9.7 µM).
With `COc1cc2c(cc1OC)C(=O)N(CCCCN1CCN(c3ccccc3OC)CC1)C2` the inhibition was 10.4% (HTR3A; radioligand binding; concentration not given, together with: [3H]GR65630).
The inhibition of `O=C(Nc1cccc2c(=O)cc(-c3nnn[nH]3)oc12)c1ccc(OCCCCc2ccccc2)cc1` is reported as 1.22% and 1.28% and 8.02% (LRRC8A/LRRC8C (Homo sapiens, UniProt Q8IWT6+Q8TDW0, M48D/T48D); ion current, whole-cell patch clamp; HCT LRRC8-/- cells; 1 µM, +100 mV, T48D/M48D heteromers).
The inhibition of `Cc1nn(-c2nc3ccccc3[nH]2)c(O)c1C(c1ccccc1C(=O)O)c1c(C)nn(-c2nc3ccccc3[nH]2)c1O` is reported as 86.6% (Cyclic GMP-AMP synthase (CGAS, Homo sapiens, UniProt Q8N884); enzyme activity, inhibitor, pyrophosphatase-coupled; 25 µM, 1.5 h, together with: HT-DNA).
`CC(C)c1cc(C(=O)N2Cc3ccc(CN4CCN(C)CC4)cc3C2)c(O)cc1O` gave an inhibition of over 85% (Hsp90; tracer binding, autoradiography; human and mouse tumour sections; 10 µM, together with: [11C]HSP990).
With `CCCCCCCCN(CCC(=O)Nc1ccccc1)C(=O)[C@@H]1CCCN1` the inhibition was 64% (Protein-S-isoprenylcysteine O-methyltransferase (Homo sapiens, UniProt O60725); enzyme activity; Sf9 membranes; 50 µM, together with: biotin-farnesyl-L-cysteine).
The inhibition of `CCc1oc2ccccc2c1C(=O)c1cc(Br)c(O)c(Br)c1` is reported as 65.2% (Solute carrier family 22 member 12 (SLC22A12, Homo sapiens, UniProt Q96S37, F360A); uric acid uptake; HEK293T transfected with SLC22A12 F360A; 0.5 µM, 10 min, 37 °C, mean, together with: [14C]urate 200 µM).
With `CN(C(=O)n1cnc(-c2ccc[n+]([O-])c2)c1)C1CCCCC1` the inhibition was 9.73% (Equilibrative nucleoside transporter 1 (SLC29A1, Homo sapiens, UniProt Q99808); concentration not given).
The inhibition of `COc1ccccc1OCCNCC(O)COc1cccc2[nH]c3ccccc3c12` (centres unmarked) is reported as 15.2 ± 12.7% (Trypanothione synthetase; enzyme activity, inhibitor, phosphate release; 25 µM).
For `COc1cccc(OC[C@H]2CN(CCN3CCc4ccccc43)CCO2)c1`, the inhibition was -6.8% (HTR3A; radioligand binding; concentration not given, together with: [3H]GR65630).
With `OO` the inhibition was 10 ± 10% (Histone acetyltransferase GCN5, with Ada2 and Ada3 (Saccharomyces cerevisiae S288c, UniProt Q03330); enzyme activity, inhibitor; 62.5 µM, Gcn5-Ada2-Ada3 complex, no DTT, together with: [3H]acetyl-CoA).

A few entries again:
With `C[C@H]1[C@H](OC(=O)CCC(=O)O)O[C@@H]2O[C@@]3(C)CC[C@H]4[C@H](C)CC[C@@H]1[C@@]24OO3` the inhibition was 29.8% (Non-structural polyprotein pORF1, RNA-dependent RNA polymerase (Hepatitis E virus genotype 1, UniProt P33424); polymerase activity, colorimetric; 9.7 µM).
With `COc1cc2c(cc1OC)C(=O)N(CCCCN1CCN(c3ccccc3OC)CC1)C2` the inhibition was 10.4% (HTR3A; radioligand binding; concentration not given, together with: [3H]GR65630).
The inhibition of `O=C(Nc1cccc2c(=O)cc(-c3nnn[nH]3)oc12)c1ccc(OCCCCc2ccccc2)cc1` is reported as 1.22% and 1.28% and 8.02% (LRRC8A/LRRC8C (Homo sapiens, UniProt Q8IWT6+Q8TDW0, M48D/T48D); ion current, whole-cell patch clamp; HCT LRRC8-/- cells; 1 µM, +100 mV, T48D/M48D heteromers).
The inhibition of `Cc1nn(-c2nc3ccccc3[nH]2)c(O)c1C(c1ccccc1C(=O)O)c1c(C)nn(-c2nc3ccccc3[nH]2)c1O` is reported as 86.6% (Cyclic GMP-AMP synthase (CGAS, Homo sapiens, UniProt Q8N884); enzyme activity, inhibitor, pyrophosphatase-coupled; 25 µM, 1.5 h, together with: HT-DNA).
`CC(C)c1cc(C(=O)N2Cc3ccc(CN4CCN(C)CC4)cc3C2)c(O)cc1O` gave an inhibition of over 85% (Hsp90; tracer binding, autoradiography; human and mouse tumour sections; 10 µM, together with: [11C]HSP990).
